Measurements gathered from unrelated publications.
Protocols differ between the studies behind these lines. Numbers after ± are the reported error.
rhlR: HTH-type quorum-sensing regulator RhlR (rhlR, Pseudomonas aeruginosa, UniProt P54292)
Chain of UniProt P54292 (whole entry, looked up): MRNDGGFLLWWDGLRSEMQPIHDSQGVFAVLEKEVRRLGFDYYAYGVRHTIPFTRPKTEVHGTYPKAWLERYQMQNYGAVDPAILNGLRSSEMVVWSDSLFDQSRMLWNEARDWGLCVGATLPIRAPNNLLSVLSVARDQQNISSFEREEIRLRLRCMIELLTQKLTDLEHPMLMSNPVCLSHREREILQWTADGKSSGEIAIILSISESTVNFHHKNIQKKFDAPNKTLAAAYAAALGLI
Chain of UniProt Q9H093 (whole entry, looked up): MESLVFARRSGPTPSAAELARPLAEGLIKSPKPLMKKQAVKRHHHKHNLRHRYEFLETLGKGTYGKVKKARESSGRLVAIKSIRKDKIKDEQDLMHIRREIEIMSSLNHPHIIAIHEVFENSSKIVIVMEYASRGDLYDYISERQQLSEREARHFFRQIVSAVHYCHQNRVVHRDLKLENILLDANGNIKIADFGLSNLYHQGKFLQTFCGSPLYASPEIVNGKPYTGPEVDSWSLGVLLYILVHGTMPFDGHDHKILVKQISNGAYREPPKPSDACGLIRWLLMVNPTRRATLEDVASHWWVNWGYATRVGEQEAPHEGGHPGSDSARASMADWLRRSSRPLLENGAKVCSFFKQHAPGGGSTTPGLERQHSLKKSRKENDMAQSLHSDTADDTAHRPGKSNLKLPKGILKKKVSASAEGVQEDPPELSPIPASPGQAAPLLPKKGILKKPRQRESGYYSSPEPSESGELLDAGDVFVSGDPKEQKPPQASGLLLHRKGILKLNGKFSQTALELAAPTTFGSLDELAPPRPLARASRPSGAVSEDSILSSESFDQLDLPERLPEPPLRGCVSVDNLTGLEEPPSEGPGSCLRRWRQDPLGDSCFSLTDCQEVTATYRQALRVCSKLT
Chain of UniProt O14965 (whole entry, looked up): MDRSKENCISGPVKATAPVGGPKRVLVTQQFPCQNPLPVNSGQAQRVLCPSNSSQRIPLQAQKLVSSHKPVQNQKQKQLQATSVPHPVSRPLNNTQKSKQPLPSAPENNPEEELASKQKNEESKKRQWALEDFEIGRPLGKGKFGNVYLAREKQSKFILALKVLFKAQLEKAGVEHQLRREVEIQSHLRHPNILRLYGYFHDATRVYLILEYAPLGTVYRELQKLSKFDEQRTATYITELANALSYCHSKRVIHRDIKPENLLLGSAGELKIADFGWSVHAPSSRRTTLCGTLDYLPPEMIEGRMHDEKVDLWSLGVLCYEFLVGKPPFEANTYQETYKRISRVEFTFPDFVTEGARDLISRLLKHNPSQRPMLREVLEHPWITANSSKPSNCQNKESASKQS
Chain of UniProt O75716 (whole entry, looked up): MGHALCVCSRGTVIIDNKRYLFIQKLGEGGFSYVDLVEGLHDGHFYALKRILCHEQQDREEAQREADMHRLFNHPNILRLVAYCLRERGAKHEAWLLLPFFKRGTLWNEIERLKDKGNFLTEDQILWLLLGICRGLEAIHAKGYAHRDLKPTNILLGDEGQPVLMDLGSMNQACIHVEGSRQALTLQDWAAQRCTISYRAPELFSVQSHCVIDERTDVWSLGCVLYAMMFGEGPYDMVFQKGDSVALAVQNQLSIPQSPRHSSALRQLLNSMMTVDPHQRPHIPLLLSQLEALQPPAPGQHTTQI
Chain of UniProt Q16654 (whole entry, looked up): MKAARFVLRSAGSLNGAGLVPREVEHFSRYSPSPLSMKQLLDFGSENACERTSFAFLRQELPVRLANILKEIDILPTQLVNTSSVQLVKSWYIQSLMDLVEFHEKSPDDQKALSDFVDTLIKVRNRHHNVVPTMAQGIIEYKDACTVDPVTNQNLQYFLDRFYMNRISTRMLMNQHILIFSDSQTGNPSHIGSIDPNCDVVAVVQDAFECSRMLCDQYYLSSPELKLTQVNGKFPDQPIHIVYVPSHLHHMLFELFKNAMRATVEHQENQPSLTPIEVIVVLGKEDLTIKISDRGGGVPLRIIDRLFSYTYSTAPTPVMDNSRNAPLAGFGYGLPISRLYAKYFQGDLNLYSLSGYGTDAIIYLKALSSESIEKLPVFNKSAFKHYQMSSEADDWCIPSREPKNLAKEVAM

Structure (SMILES) | target | assay | conditions | scale | remaining activity [%]
COc1cc(C#CC(O)c2ccccc2OC)ccc1O (stereo not drawn) | rhlR | reporter gene, inhibitor, quorum sensing reporter strain | 10 µM, 1.5 h | relative to: DMSO | 56
C=CC(=O)N1CCC[C@@H](n2nc(-c3ccc(Oc4ccccc4)cc3)c3c(N)ncnc32)C1 | PDK4 (Homo sapiens, UniProt Q16654) | – | 1 µM | – | 65
O=C(O)c1ccc(Nc2ncc3c(n2)-c2ccc(Cl)cc2C(c2c(F)cccc2F)=NC3)cc1 | MST1(h) | kinase activity | 1 µM | – | 107
COc1cc(-c2cncc3c2CN(C)Cc2cc(N4CCNCC4)ccc2-3)cc(OC)c1OC | NUAK2 (Homo sapiens, UniProt Q9H093) | kinase activity | 1 µM, human enzyme, with: ATP 10 µM | relative to: DMSO control | 113
Cc1ccccc1C(=O)C#Cc1ccc(F)c(F)c1 | rhlR | reporter gene, inhibitor, quorum sensing reporter strain | 10 µM, 1.5 h | relative to: DMSO | 74
COc1ccc(F)cc1C(=O)NCc1ccc(-c2nn([C@@H](C)C(F)(F)F)c(N)c2C(N)=O)cc1 | Aurora kinase A (AURKA, Homo sapiens, UniProt O14965) | – | 1000 nM, with: ATP at Km | – | 60.5 ± 3.5
O=C(NC1CCC1)c1ccc2nc(-c3cccc(NS(=O)(=O)NCCN4CCCCC4)c3)cn2c1 | STK16 (Homo sapiens, UniProt O75716) | enzyme activity | 10 µM | – | 100
COc1cc(C#CC(=O)c2cccc(C)c2)ccc1O | rhlR | reporter gene, inhibitor, quorum sensing reporter strain | 10 µM, 1.5 h | relative to: DMSO | 76
COc1cc(Nc2ncc3c(n2)-c2ccc(Cl)cc2C(c2c(F)cccc2OC)=NC3)ccc1C(=O)O | HIPK4 | kinase activity | 1 µM | – | 99
